Measured values collected from several papers.
Each line is one published result; not all experiments were run side by side. ± gives the spread as reported.
Sequence of UniProt P38646 (whole entry, looked up): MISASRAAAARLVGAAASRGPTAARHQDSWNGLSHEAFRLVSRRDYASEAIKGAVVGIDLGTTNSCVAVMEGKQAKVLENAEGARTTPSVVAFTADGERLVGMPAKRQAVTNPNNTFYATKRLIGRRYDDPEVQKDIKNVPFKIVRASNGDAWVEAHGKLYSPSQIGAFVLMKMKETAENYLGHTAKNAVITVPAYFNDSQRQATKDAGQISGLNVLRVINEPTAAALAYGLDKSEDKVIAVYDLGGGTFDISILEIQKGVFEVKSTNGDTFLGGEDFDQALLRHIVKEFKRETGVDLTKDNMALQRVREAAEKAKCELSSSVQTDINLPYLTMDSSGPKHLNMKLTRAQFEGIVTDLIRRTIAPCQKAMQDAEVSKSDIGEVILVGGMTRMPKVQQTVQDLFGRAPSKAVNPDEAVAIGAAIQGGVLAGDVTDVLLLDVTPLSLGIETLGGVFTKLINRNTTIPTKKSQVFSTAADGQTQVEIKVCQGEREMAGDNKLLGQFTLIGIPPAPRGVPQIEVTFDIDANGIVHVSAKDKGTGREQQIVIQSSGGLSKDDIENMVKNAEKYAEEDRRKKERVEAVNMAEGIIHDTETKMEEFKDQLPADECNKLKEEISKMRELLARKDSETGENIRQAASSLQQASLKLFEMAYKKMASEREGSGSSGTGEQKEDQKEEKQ

SMILES | target or system | test | system | setting | how to read | quantity | value
CCN(CC)C(=O)[C@@H]1C=C2c3cccc4[nH]cc(c34)C[C@H]2N(C)C1 |  | item: lack of appetite | healthy volunteers | dose not given, 0 to 12 h | relative to: placebo, direction not given | List of Complaints score | 9
CC1CCCCN1CCCNC(=O)c1cc(Sc2ccc(Cl)cc2)nc2ccccc12 (centres unmarked) | Vero-E6 | CellTiter-Glo ATP |  | 72 h, first round 5-point | relative to: DMSO 0%, hyamine -100%, more negative, more toxic | maximum response | -1.68%
O=C1c2c(O)c(=O)ccn2N([C@@H]2c3ccccc3SCc3c2ccc(F)c3F)[C@@H]2COCCN12 |  |  | BALB/c mice, plasma | oral, 5 mg/kg baloxavir marboxil, 6 h |  | plasma concentration | 15.7 ng/mL
Cc1ncc2n1-c1ccc(Cl)cc1C(c1ccccc1F)=NC2 |  |  | wild-type mice, plasma | intravenous, 0.3 mg/kg, together with: 3-day PCN 10 mg/kg |  | half-life | 31.1 ± 12.6 min
CCCC(C(=O)c1ccc(O)c(O)c1)N1CCCC1 (centres unmarked) |  |  | rat | subcutaneous, 4 mg/kg MDPV, 240 min |  | brain-to-plasma ratio | 0.2 ± 0.1
CN/C(=N\[N+](=O)[O-])NCc1cnc(Cl)s1 |  |  | soil | 56 days, nominal 0.12 |  | recovery | 42%
Cc1ncc(OC[C@@]2(c3cccc(F)c3)C[C@H]2C(=O)Nc2ccc(F)cn2)c(C)n1 |  | population PK base model | human, plasma | oral |  | absorption lag time | 0.401 h
CCCN(CCC)CCNC(=O)c1cc(-c2ccc(Br)s2)nc2ccccc12 | Vero-E6 | CellTiter-Glo ATP |  | 72 h, second round 5-point | relative to: DMSO 0%, hyamine -100%, more negative, more toxic | maximum response | -5.38%
CCCC(C(=O)c1ccc2c(c1)OCO2)N1CCCC1.Cl (racemic) |  |  | rat | subcutaneous, 1 mg/kg, 240 min |  | brain-to-plasma ratio | 11.1 ± 2.1
CCC(CC)COC(=O)[C@H](C)N[P@](=O)(OC[C@H]1O[C@@](C#N)(c2ccc3c(N)ncnn23)[C@H](O)[C@@H]1O)Oc1ccccc1 |  |  | human | intravenous, 100 mg |  | participants with diarrhoea | 11%
OCc1ncc2n1-c1ccc(Cl)cc1C(c1ccccc1F)=NC2 |  |  | human, plasma | 7.5 mg midazolam, day 12, geometric mean, together with: amenamevir 400 mg |  | AUC(0-t) | 39 ng·h/mL
C#Cc1ccc2c(c1)C(c1ccccn1)=NCc1c(-c3cnco3)ncn1-2 |  |  | cynomolgus monkey hepatocytes | 2 µM, 4 h, 37 °C |  | metabolite peak area share | 87.4%
C[C@H]1CN(c2n[nH]c3nc(N[C@H]4CC[C@H](NS(=O)(=O)CCC(F)(F)F)CC4)ncc23)CCO1 | HSPA9 (Homo sapiens, UniProt P38646) | inhibitor, Kinobeads competition profiling |  | 0.16 µM | relative to: vehicle | relative abundance | 1.09
CCCC(C(=O)c1ccc(O)c(OC)c1)N1CCCC1 (centres unmarked) |  |  | rat | subcutaneous, 2 mg/kg MDPV, 240 min |  | brain-to-plasma ratio | 0.1
